# Assay results pooled from the literature.
# By UniProt entry, the sequences of proteins in these tests, tags left out. Chains listed by the source or under a name are the forms on record and can include a tag or linker. Residues count along the entry.
# UniProt P41146, whole entry: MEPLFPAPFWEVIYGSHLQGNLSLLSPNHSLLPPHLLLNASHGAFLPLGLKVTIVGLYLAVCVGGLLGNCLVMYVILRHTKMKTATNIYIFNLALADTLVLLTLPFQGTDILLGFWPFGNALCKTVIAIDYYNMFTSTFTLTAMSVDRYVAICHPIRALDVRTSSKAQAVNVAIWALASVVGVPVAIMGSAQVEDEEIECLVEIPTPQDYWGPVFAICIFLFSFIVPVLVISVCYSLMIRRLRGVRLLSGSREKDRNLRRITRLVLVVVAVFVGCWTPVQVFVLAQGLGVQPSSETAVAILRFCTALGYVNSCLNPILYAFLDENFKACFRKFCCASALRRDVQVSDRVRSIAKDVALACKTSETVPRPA
# UniProt P08510, 1-655 with tags or gaps DEL6-46: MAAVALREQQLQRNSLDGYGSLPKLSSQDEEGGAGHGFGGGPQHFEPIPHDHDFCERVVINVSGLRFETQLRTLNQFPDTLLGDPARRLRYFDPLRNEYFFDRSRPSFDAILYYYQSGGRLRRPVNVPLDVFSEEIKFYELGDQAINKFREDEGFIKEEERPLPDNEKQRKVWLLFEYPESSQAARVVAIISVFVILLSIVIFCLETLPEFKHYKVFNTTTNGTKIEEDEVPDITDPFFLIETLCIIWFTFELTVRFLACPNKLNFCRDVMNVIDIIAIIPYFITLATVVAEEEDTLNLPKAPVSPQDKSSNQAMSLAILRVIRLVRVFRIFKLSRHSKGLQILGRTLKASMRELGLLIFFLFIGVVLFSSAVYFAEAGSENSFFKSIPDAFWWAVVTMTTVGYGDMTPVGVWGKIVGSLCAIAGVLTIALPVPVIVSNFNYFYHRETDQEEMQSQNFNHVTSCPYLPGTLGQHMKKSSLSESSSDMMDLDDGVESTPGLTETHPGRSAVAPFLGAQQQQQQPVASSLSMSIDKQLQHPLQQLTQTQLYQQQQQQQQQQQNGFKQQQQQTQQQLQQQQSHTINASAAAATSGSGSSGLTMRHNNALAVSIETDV
# UniProt P37136, 32-614 limits assumed: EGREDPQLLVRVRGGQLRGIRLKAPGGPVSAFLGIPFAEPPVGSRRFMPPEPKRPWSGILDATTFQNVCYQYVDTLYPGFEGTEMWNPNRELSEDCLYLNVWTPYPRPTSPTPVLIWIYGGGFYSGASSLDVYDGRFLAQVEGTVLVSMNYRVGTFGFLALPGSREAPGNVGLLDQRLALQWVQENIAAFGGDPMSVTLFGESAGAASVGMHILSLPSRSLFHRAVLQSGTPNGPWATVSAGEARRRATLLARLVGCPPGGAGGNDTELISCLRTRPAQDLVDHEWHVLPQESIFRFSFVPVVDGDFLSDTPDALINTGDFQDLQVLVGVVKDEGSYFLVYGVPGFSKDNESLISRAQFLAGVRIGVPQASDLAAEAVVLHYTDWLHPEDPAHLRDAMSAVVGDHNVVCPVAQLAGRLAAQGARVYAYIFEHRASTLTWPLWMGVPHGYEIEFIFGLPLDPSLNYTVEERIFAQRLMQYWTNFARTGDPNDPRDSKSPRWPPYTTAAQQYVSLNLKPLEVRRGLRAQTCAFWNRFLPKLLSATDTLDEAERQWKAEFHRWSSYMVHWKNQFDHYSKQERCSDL
# UniProt P62873, whole entry partner: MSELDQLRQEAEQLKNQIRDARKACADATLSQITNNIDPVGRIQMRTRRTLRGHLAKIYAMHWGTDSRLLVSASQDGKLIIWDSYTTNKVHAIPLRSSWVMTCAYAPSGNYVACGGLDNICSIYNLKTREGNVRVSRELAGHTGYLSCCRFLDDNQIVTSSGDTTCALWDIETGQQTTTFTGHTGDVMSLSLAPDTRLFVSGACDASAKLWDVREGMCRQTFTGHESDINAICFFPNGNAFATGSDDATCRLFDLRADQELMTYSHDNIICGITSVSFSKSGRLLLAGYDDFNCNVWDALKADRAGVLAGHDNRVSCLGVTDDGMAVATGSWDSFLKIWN
# UniProt P59768, 2-68 partner limits assumed: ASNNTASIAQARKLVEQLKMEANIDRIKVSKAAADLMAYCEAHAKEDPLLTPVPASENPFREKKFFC
# UniProt P63096, 2-354 partner limits assumed: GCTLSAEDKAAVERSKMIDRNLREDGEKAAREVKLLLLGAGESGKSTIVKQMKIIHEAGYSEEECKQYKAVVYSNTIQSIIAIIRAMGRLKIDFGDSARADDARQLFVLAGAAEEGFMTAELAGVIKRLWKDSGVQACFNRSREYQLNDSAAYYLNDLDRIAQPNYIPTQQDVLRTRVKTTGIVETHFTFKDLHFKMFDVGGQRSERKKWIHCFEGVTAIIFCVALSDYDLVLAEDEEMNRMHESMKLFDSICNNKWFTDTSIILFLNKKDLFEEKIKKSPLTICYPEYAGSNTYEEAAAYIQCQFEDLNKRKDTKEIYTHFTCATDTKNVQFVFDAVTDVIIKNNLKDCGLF
# ± marks the error that the study gave.
# OPRL1: Nociceptin receptor (OPRL1, Homo sapiens, UniProt P41146)
SMILES,target or system,assay,system,setting,scale,endpoint,result
CC[C@H](C)[C@H](NC(=O)[C@H](C)NC(=O)[C@H](CCC(=O)O)NC(=O)[C@H](CCC(=O)O)NC(=O)[C@H](CC(C)C)NC(=O)[C@H](CCCCN)NC(=O)[C@H](CCCCN)NC(=O)[C@H](CCSC)NC(=O)[C@H](CCC(=O)O)NC(=O)[C@H](Cc1ccc(O)cc1)NC(=O)[C@H](CCC(=O)O)NC(=O)[C@H](CC(C)C)NC(=O)[C@H](CC(=O)O)NC(=O)[C@H](CC(C)C)NC(=O)[C@H](Cc1ccccc1)NC(=O)[C@H](Cc1ccc(O)cc1)NC(=O)[C@@H](NC(=O)[C@H](CC(N)=O)NC(=O)[C@@H](NC(=O)[C@H](CCC(N)=O)NC(=O)[C@H](CC(=O)O)NC(=O)[C@H](CC(C)C)NC(=O)[C@@H](N)CO)[C@@H](C)CC)C(C)C)C(=O)N[C@@H](CCCCN)C(=O)N[C@@H](CCCCN)C(=O)N[C@@H](CC(C)C)C(=O)N[C@@H](CCC(=O)O)C(=O)N[C@@H](CCC(=O)O)C(=O)N[C@H](C(=O)N[C@@H](Cc1ccc(O)cc1)C(=O)N[C@H](C(=O)N[C@@H](CC(=O)O)C(=O)N[C@@H](CC(C)C)C(=O)N[C@@H](CCCCN)C(=O)N[C@@H](CCC(=O)O)C(=O)N[C@@H](CC(C)C)C(=O)O)[C@@H](C)CC)[C@@H](C)O,SARS-CoV-2 XBB.1.5 pseudovirus,"pseudovirus infection, inhibitor, luciferase",Caco-2,"24 h, dual mutations",,IC50,174 nM
O=C(NC1CCN(c2ncnc3[nH]cnc23)CC1)c1cccc(NS(=O)(=O)c2ccc([N+](=O)[O-])cc2)c1,SARS-CoV-2,,Wuhan-Hu-1,7.407 µM,baseline: untreated infected cells,relative infection,26.4%
O=C(Nc1ccc2c(c1)C(=O)N(O)C(=O)C2C(=O)NCc1ccc(F)cc1)c1ccccc1 (stereo not drawn),Lymphocytic choriomeningitis mammarenavirus,minigenome reporter gene,,50 µM,baseline: DMSO,remaining activity,67.2%
O=C(NC1CCN(c2ncnc3[nH]cnc23)CC1)c1cccc(S(=O)(=O)Nc2ccc(Cl)cc2)c1,SARS-CoV-2,,Wuhan-Hu-1,0.01016 µM,baseline: untreated infected cells,relative infection,89.4%
CC[C@H](C)[C@H](NC(=O)[C@H](C)NC(=O)[C@H](CCC(=O)O)NC(=O)[C@H](CCC(=O)O)NC(=O)[C@H](CC(C)C)NC(=O)[C@H](CCCCN)NC(=O)[C@H](CCCCN)NC(=O)[C@H](CCSC)NC(=O)[C@H](CCC(=O)O)NC(=O)[C@H](Cc1ccc(O)cc1)NC(=O)[C@H](CCC(=O)O)NC(=O)[C@H](CC(C)C)NC(=O)[C@H](CC(=O)O)NC(=O)[C@H](CC(C)C)NC(=O)[C@H](Cc1ccccc1)NC(=O)[C@H](Cc1ccccc1)NC(=O)[C@@H](NC(=O)[C@H](CC(N)=O)NC(=O)[C@@H](NC(=O)[C@H](CCC(N)=O)NC(=O)[C@H](CC(=O)O)NC(=O)[C@H](CC(C)C)NC(=O)[C@@H](N)CO)[C@@H](C)CC)C(C)C)C(=O)N[C@@H](CCCCN)C(=O)N[C@@H](CCCCN)C(=O)N[C@@H](CC(C)C)C(=O)N[C@@H](CCC(=O)O)C(=O)N[C@@H](CCC(=O)O)C(=O)N[C@H](C(=O)N[C@@H](Cc1ccc(O)cc1)C(=O)N[C@H](C(=O)N[C@@H](CC(=O)O)C(=O)N[C@@H](CC(C)C)C(=O)N[C@@H](CCCCN)C(=O)N[C@@H](CCC(=O)O)C(=O)N[C@@H](CC(C)C)C(=O)O)[C@@H](C)CC)[C@@H](C)O,SARS-CoV pseudovirus,"pseudovirus infection, inhibitor, luciferase",Caco-2,"24 h, dual mutations",,IC50,289 nM
O=C(NC1CCN(c2ncnc3[nH]cnc23)CC1)c1cccc(NS(=O)(=O)c2ccc(Cl)cc2)c1,SARS-CoV-2,,Wuhan-Hu-1,0.2743 µM,baseline: untreated infected cells,relative infection,72.4%
CC[C@H](C)[C@H](NC(=O)[C@H](C)NC(=O)[C@H](CCC(=O)O)NC(=O)[C@H](CCC(=O)O)NC(=O)[C@H](CC(C)C)NC(=O)[C@H](CCCCN)NC(=O)[C@H](CCCCN)NC(=O)[C@H](CCSC)NC(=O)[C@H](CCC(=O)O)NC(=O)[C@H](Cc1ccc(O)cc1)NC(=O)[C@H](CCC(=O)O)NC(=O)[C@H](CC(C)C)NC(=O)[C@H](CC(=O)O)NC(=O)[C@H](CC(C)C)NC(=O)[C@H](Cc1ccccc1)NC(=O)[C@@H](NC(=O)[C@@H](NC(=O)[C@H](CC(N)=O)NC(=O)[C@@H](NC(=O)[C@H](CCC(N)=O)NC(=O)[C@H](CC(=O)O)NC(=O)[C@H](CC(C)C)NC(=O)[C@@H](N)CO)[C@@H](C)CC)C(C)C)[C@@H](C)O)C(=O)N[C@@H](CCCCN)C(=O)N[C@@H](CCCCN)C(=O)N[C@@H](CC(C)C)C(=O)N[C@@H](CCC(=O)O)C(=O)N[C@@H](CCC(=O)O)C(=O)N[C@@H](CO)C(=O)N[C@@H](Cc1ccc(O)cc1)C(=O)N[C@H](C(=O)N[C@@H](CC(=O)O)C(=O)N[C@@H](CC(C)C)C(=O)N[C@@H](CCCCN)C(=O)N[C@@H](CCC(=O)O)C(=O)N[C@@H](CC(C)C)C(=O)O)[C@@H](C)CC,SARS-CoV-2 Gamma pseudovirus,"pseudovirus infection, inhibitor, luciferase",Caco-2,24 h,,IC50,1710 nM
CN1C(=O)CCc2cc(C(=O)NCC=CS(C)(=O)=O)ccc21,Venezuelan equine encephalitis virus,"viral replication, nanoluciferase reporter",TC83-nLuc-nsP3,,,IC50,3700 ± 800 nM
O=C1Cc2ccccc2N1C1CCN([C@@H]2CC[C@H]3CCCc4cccc2c43)CC1,OPRL1,"G protein activation, GTPγS binding",CHO membranes,"concentration not given, unit not given",baseline: compound over N/OFQ Emax,intrinsic activity,0.95
CC[C@H](C)[C@H](NC(=O)[C@H](C)NC(=O)[C@H](CCC(=O)O)NC(=O)[C@H](CCC(=O)O)NC(=O)[C@H](CC(C)C)NC(=O)[C@H](CCCCN)NC(=O)[C@H](CCCCN)NC(=O)[C@H](CCSC)NC(=O)[C@H](CCC(=O)O)NC(=O)[C@H](Cc1ccc(O)cc1)NC(=O)[C@H](CCC(=O)O)NC(=O)[C@H](CC(C)C)NC(=O)[C@H](CC(=O)O)NC(=O)[C@H](CC(C)C)NC(=O)[C@H](Cc1ccccc1)NC(=O)[C@H](Cc1ccc(O)cc1)NC(=O)[C@@H](NC(=O)[C@H](CC(N)=O)NC(=O)[C@@H](NC(=O)[C@H](CCC(N)=O)NC(=O)[C@H](CC(=O)O)NC(=O)[C@H](CC(C)C)NC(=O)[C@@H](N)CO)[C@@H](C)CC)C(C)C)C(=O)N[C@@H](CCCCN)C(=O)N[C@@H](CCCCN)C(=O)N[C@@H](CC(C)C)C(=O)N[C@@H](CCC(=O)O)C(=O)N[C@@H](CCC(=O)O)C(=O)N[C@@H](C)C(=O)N[C@@H](Cc1ccc(O)cc1)C(=O)N[C@H](C(=O)N[C@@H](CC(=O)O)C(=O)N[C@@H](CC(C)C)C(=O)N[C@@H](CCCCN)C(=O)N[C@@H](CCC(=O)O)C(=O)N[C@@H](CC(C)C)C(=O)O)[C@@H](C)CC,SARS-CoV-2 XBB.1.5 pseudovirus,"pseudovirus infection, inhibitor, luciferase",Caco-2,"24 h, dual mutations",,IC50,49.6 nM
O=C(O)C(O)=CC(=O)c1cc(Oc2ccccc2)cc(Oc2ccccc2)c1,SARS-CoV-2,viral replication,VeroE6-TMPRSS2,,,EC50,26000 ± 1700 nM
CC[C@H](C)[C@@H]1NC(=O)[C@H](CCCNC(=N)N)NC(=O)[C@@H](N)CSSC[C@@H]2NC(=O)[C@@H]3CSSC[C@@H](C(=O)N[C@H](C(=O)O)C(C)C)NC(=O)[C@H](CCCCN)NC(=O)[C@H](CC(N)=O)NC(=O)[C@H](Cc4ccccc4)NC(=O)[C@H](CCCNC(=N)N)NC(=O)[C@H](CC(N)=O)NC(=O)[C@H](CSSC[C@H](NC(=O)[C@H](CCCCN)NC(=O)[C@H](CCC(N)=O)NC(=O)[C@H](CC(N)=O)NC(=O)[C@@H]4C[C@@H](O)CN4C1=O)C(=O)N[C@@H](Cc1ccccc1)C(=O)N[C@@H](CCC(N)=O)C(=O)N[C@@H](Cc1c[nH]cn1)C(=O)N[C@@H](CC(C)C)C(=O)N[C@@H](CC(=O)O)C(=O)N[C@@H](CC(=O)O)C(=O)N3)NC(=O)[C@H](CCCCN)NC(=O)[C@H](CCCNC(=N)N)NC(=O)[C@H](CO)NC2=O,"Sh (Drosophila melanogaster, UniProt P08510, del6-46)","potassium current, outside-out patch clamp",,"pulse application, zero voltage, internal K 15, with: 1 mM TEA",,Kd,250 ± 26 nM
CCOP(=O)(OCC)ON1C(=O)c2cccc3cccc(c23)C1=O,"Acetylcholinesterase (Ache, Rattus norvegicus, UniProt P37136)","enzyme activity, inhibitor","rat, postnatal day 12, rat brain homogenate","15 min, 37 °C",,IC50,75 nM
O=C(NCc1ccccc1)C1C(=O)N(O)C(=O)c2cc([N+](=O)[O-])ccc21 (stereo not drawn),Lymphocytic choriomeningitis mammarenavirus,minigenome reporter gene,,50 µM,baseline: DMSO,remaining activity,72.9%
Cc1ccccc1S(=O)(=O)Nc1cccc(C(=O)NC2CCN(c3ncnc4[nH]cnc34)CC2)c1,SARS-CoV-2,,Wuhan-Hu-1,0.823 µM,baseline: untreated infected cells,relative infection,59.6%
COc1cccc(CNC(=O)N2CCCC3(C2)Nc2cccnc2N=C3NC2CCCC2)c1 (stereo not drawn),HEK293,"cell viability, CellTiter-Glo",,72 h,,CC50,> 70000 nM
CC(C)[C@H]1CC[C@@H](N2CCC3(CC2)C(=O)NCN3c2ccccc2)CC1,OPRL1,"G protein interaction, BRET",HEK293 membranes,,baseline: N/OFQ,fold lower potency,28 fold
CCOc1ccccc1-c1cc(C(=O)NC/C=C/S(C)(=O)=O)nn1COC,Venezuelan equine encephalitis virus,"viral replication, nanoluciferase reporter",TC83-nLuc-nsP3,,,EC50,> 10000 nM

# Excerpt of the above:
SMILES,target or system,assay,system,setting,scale,endpoint,result
COc1cccc(CNC(=O)N2CCCC3(C2)Nc2cccnc2N=C3NC2CCCC2)c1 (stereo not drawn),HEK293,"cell viability, CellTiter-Glo",,72 h,,CC50,> 70000 nM
